Published values pooled from the literature.
Numbered parts are unrelated; each lists some results of a single study.
Chain of UniProt Q99755 (whole entry, looked up): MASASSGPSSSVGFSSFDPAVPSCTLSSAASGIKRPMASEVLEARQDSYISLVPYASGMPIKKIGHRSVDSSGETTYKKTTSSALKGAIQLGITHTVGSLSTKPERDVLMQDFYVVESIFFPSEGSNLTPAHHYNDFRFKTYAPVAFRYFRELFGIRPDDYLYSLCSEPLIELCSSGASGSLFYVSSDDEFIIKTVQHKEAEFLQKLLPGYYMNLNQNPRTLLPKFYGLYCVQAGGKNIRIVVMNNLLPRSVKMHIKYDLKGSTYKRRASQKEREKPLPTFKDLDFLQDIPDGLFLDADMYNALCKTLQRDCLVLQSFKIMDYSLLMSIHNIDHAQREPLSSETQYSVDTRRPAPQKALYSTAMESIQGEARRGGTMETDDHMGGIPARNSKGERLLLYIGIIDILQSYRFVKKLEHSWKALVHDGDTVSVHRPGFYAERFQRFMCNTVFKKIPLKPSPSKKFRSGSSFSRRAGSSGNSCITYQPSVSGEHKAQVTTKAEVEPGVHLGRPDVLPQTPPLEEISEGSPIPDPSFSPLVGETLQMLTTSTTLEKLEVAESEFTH
Chain of UniProt P23458 (whole entry, looked up): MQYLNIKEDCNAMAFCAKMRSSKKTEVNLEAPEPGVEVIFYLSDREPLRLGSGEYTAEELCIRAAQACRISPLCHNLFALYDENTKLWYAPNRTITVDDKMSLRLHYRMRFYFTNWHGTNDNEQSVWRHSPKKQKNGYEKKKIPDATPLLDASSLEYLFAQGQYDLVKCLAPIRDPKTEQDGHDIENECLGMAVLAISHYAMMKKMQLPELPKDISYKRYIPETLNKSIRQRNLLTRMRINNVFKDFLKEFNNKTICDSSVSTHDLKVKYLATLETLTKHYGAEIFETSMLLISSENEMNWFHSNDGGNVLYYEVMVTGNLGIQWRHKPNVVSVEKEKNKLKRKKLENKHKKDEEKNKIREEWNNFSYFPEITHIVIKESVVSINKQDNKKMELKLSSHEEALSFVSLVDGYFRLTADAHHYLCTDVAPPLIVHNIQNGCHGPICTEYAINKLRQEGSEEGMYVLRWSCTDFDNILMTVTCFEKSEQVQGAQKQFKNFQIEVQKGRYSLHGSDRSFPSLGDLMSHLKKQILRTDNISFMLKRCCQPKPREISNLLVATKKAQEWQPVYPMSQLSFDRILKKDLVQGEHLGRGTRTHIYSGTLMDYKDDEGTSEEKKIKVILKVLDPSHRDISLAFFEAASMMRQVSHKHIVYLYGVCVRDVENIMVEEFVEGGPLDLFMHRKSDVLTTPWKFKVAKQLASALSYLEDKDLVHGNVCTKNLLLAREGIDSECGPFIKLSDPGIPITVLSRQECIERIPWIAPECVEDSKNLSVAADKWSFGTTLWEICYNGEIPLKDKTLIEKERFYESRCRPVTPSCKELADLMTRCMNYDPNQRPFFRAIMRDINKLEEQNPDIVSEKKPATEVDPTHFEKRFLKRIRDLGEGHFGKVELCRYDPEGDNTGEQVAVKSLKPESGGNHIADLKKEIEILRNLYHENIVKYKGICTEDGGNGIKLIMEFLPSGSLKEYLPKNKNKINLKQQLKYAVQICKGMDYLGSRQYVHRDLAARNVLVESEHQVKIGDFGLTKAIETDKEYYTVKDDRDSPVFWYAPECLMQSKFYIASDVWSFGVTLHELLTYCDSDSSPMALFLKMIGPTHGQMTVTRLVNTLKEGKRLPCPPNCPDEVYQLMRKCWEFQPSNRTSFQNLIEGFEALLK
Chain of UniProt O15197 (whole entry, looked up): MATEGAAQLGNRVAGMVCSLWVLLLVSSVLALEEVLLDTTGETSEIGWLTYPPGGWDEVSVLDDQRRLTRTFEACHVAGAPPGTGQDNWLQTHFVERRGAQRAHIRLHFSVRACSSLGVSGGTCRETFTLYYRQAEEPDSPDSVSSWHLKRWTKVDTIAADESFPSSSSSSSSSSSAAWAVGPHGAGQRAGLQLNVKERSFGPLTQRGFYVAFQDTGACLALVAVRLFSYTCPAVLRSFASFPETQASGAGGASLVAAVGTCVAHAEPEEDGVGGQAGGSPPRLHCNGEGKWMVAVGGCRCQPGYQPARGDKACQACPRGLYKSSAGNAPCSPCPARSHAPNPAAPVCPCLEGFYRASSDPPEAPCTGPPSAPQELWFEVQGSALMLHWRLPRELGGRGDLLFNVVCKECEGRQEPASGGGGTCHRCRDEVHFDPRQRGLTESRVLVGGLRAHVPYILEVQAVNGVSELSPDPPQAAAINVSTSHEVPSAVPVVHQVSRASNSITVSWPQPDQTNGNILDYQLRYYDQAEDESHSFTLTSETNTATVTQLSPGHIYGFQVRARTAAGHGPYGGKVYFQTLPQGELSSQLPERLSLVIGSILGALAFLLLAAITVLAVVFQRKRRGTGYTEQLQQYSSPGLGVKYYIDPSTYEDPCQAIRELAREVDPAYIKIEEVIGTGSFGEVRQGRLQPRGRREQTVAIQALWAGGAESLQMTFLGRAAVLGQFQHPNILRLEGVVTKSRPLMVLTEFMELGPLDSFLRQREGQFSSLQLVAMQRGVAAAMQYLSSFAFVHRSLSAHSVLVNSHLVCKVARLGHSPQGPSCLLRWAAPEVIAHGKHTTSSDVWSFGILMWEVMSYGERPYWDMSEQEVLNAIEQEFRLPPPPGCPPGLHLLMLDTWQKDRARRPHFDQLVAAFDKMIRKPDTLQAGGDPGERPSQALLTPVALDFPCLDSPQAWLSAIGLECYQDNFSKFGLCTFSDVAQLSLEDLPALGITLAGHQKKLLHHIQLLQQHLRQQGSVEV
Chain of UniProt P54753 (whole entry, looked up): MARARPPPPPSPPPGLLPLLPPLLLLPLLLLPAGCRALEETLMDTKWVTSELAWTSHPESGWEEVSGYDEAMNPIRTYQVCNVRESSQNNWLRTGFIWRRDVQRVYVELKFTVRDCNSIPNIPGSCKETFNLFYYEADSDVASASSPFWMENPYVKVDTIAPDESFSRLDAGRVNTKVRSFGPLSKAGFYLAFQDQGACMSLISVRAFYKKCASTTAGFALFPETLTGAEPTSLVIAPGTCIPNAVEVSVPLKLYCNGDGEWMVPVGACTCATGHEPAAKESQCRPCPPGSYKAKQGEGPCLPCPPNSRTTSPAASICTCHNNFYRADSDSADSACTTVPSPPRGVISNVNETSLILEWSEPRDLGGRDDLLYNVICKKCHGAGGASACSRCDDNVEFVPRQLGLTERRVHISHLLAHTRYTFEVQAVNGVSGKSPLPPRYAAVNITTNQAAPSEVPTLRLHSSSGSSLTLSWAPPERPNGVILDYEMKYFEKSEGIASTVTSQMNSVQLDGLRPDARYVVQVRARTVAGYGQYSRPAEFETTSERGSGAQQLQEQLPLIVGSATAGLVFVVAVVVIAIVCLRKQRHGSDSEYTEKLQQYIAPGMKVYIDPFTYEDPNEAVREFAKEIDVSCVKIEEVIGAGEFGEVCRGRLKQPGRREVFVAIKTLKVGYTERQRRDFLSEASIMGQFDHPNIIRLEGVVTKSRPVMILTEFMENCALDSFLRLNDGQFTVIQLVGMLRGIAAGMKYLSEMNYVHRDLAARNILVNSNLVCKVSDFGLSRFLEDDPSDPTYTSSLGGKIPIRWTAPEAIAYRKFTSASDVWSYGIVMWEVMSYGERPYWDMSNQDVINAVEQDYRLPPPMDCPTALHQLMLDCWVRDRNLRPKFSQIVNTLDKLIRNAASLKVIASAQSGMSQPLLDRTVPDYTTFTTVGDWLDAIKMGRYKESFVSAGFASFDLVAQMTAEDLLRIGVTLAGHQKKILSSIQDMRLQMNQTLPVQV

Study 1 — observed: enzyme activity; mode: inhibitor; concentration: 10 µM
Target: Calcium/calmodulin-dependent protein kinase type II subunit alpha (CAMK2A, Homo sapiens, UniProt Q9UQM7)
Chain of UniProt Q9UQM7 (whole entry, looked up): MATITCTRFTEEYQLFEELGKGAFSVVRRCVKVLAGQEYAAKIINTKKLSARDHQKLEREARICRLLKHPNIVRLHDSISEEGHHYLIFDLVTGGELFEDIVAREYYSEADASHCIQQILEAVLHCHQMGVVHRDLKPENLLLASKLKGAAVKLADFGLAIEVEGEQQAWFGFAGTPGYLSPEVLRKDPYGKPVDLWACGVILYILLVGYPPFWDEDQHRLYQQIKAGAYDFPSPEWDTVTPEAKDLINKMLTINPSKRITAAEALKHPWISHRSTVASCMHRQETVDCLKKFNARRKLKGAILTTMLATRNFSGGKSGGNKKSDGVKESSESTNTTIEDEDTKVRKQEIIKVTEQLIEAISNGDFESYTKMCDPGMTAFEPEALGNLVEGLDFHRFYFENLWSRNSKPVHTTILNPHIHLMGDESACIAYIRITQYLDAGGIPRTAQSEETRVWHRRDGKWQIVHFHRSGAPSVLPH
SMILES	inhibition [%]
CC[N+](CC)(CC)CCOc1cccc(OCC[N+](CC)(CC)CC)c1OCC[N+](CC)(CC)CC	-7
CC(O)CN (stereo not drawn)	35
CN1CCC[C@@H]1Cc1c[nH]c2ccc(CCS(=O)(=O)c3ccccc3)cc12	-6
CC(C)=CCC[C@](C)(O[C@@H]1O[C@H](CO)[C@@H](O)[C@H](O)[C@H]1O)[C@H]1CC[C@]2(C)[C@@H]1[C@H](O)C[C@@H]1[C@@]3(C)CC[C@H](O)C(C)(C)[C@@H]3[C@@H](O[C@@H]3O[C@H](CO)[C@@H](O)[C@H](O)[C@H]3O[C@@H]3OC[C@@H](O)[C@H](O)[C@H]3O)C[C@]12C	51
Nc1c2ccccc2nc2ccccc12	16
COc1cc2ccc(=O)oc2c(O)c1OC	3
CCC(CC)O[C@@H]1C=C(C(=O)O)C[C@H](N)[C@H]1NC(C)=O	-13
CC(=O)c1ccc(S(=O)(=O)NC(=O)NC2CCCCC2)cc1	9

Study 2 — observed: enzyme activity; mode: inhibitor; concentration: 0.5 µM; relative to: control
Target: Mitogen-activated protein kinase 11 (MAPK11, Homo sapiens, UniProt Q15759)
Chain of UniProt Q15759 (whole entry, looked up): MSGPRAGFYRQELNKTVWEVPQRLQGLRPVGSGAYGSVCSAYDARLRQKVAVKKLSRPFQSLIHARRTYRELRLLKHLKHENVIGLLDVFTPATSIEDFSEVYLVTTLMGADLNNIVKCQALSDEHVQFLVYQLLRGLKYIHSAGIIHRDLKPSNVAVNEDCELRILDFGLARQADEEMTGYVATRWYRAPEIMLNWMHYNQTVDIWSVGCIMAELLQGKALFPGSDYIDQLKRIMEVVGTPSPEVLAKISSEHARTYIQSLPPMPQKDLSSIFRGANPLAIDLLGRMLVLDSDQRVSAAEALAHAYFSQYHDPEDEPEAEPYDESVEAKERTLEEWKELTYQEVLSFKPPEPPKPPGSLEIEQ
SMILES	remaining activity
COc1cc2ncnc(Nc3cccc(Cl)c3)c2cc1OC	97.5%
CCOc1nc(NC(=O)Cc2cc(OC)ccc2OC)cc(N)c1C#N	106%
COc1cc2ncnc(Nc3ccc(O)c(Br)c3)c2cc1OC	90.1%
CN([C@@H](Cc1ccc(OS(=O)(=O)c2cccc3cnccc23)cc1)C(=O)N1CCN(c2ccccc2)CC1)S(=O)(=O)c1cccc2cnccc12	98.9%
Cc1nc2cc3nc(-c4cccs4)cnc3cc2n1C	101%
Cc1cn(-c2cc(NC(=O)c3ccc(C)c(Nc4nccc(-c5cccnc5)n4)c3)cc(C(F)(F)F)c2)cn1	15.3%
O=C(NC(NC(=S)Nc1ccc(F)c([N+](=O)[O-])c1)C(Cl)(Cl)Cl)C(c1ccccc1)c1ccccc1 (stereo not drawn)	104%
CCN(CC)CCNC(=O)c1c(C)[nH]c(/C=C2\C(=O)Nc3ccc(F)cc32)c1C	99.9%
O=C(Nc1cccc(Nc2nccc(Nc3cccc(C(F)(F)F)c3)n2)c1)C1CC1	103%
c1ccc(-c2cnc(Nc3ccc(OCCN4CCCC4)cc3)s2)cc1	94.7%
CN(C)C[C@H]1CCn2c(c(C3=C(c4cn(C)c5ccccc45)C(=O)NC3=O)c3ccccc32)C1	109%

Study 3 — observed: cell-free assay; method: competition with immobilised ligand; concentration: 1 µM
SMILES: CCc1ccccc1C(=O)Nc1n[nH]c2c(C)c(F)c(C3C(C#N)=C(C)N(C)C(C)=C3C#N)cc12
target	remaining binding [%]
Tyrosine-protein kinase JAK1, JH2 (JAK1, Homo sapiens, UniProt P23458)	91
Phosphatidylinositol 4-phosphate 5-kinase type-1 alpha (PIP5K1A, Homo sapiens, UniProt Q99755)	100
Ephrin type-B receptor 6 (EPHB6, Homo sapiens, UniProt O15197)	100
Receptor-type tyrosine-protein kinase FLT3 (FLT3, Homo sapiens, UniProt P36888, N841I)	0
Ephrin type-B receptor 3 (EPHB3, Homo sapiens, UniProt P54753)	57
cAMP-dependent protein kinase catalytic subunit alpha (PRKACA, Homo sapiens, UniProt P17612)	89

Study 4 — target: His6 tag; method: AlphaScreen counter screen; concentration: concentration not given
SMILES	inhibition [%]
O=C(Nc1ccc(O)c(-c2nc3ccccc3s2)c1)c1ccco1	7.5
CNC(=O)c1cc(Oc2ccc(NC(=O)Nc3ccc(Cl)c(C(F)(F)F)c3)cc2)ccn1	8.9
O=C(CSc1ccc2nnc(-c3cccc(F)c3)n2n1)N1CCOCC1	9.25
C=CCN(/C=C1/C(=O)O[C@H](COC)[C@@]2(C)C1=C(O)C(=O)C1=C2[C@H](OC(C)=O)C[C@]2(C)C(=O)CC[C@@H]12)CC=C	11.1
CCOC(=O)N1CCN(c2nc(N)nc3[nH]cnc23)CC1	10.5
